Measured values from different studies.
A part holds a random share of what one study measured. Substitutions count along the parent as printed.
UniProt O23661, sequence (whole entry, looked up): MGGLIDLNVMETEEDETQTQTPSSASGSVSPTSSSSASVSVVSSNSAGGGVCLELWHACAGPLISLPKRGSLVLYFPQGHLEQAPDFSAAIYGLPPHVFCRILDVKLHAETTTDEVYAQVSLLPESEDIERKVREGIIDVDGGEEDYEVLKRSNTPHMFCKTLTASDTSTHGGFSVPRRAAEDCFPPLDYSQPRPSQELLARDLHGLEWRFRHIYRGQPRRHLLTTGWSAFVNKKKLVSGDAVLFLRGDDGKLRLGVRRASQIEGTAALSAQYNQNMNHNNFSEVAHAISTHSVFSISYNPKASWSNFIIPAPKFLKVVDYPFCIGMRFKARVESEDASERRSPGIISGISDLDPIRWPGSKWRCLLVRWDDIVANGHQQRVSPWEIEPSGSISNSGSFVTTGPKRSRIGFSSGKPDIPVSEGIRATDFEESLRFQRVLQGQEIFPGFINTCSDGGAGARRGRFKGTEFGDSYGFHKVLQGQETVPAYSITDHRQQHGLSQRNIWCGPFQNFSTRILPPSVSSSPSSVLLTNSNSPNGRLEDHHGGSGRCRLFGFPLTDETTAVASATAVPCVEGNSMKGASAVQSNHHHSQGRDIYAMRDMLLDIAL
UniProt Q9FGV1, sequence (whole entry, looked up): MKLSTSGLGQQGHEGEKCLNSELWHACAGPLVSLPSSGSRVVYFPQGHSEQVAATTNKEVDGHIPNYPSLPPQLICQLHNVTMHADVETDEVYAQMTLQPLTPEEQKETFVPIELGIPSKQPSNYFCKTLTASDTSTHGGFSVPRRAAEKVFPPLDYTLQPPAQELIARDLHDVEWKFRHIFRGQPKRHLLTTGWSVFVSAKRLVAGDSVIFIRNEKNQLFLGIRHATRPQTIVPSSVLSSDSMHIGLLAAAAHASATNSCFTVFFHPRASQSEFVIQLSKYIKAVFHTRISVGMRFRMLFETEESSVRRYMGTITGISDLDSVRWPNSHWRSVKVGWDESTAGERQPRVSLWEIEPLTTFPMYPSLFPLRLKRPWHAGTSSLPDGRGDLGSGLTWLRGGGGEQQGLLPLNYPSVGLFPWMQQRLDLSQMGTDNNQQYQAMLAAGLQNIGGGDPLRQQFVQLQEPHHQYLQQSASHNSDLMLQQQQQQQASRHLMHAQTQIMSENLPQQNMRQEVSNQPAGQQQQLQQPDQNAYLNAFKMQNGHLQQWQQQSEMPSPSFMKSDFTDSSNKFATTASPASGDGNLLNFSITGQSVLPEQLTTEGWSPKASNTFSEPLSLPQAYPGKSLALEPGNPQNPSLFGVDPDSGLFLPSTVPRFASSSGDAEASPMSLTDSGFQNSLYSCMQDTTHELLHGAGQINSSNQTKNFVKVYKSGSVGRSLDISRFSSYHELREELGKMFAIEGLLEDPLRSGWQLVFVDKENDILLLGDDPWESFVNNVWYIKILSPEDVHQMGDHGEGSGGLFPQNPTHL
UniProt Q9C8N7, sequence (whole entry, looked up): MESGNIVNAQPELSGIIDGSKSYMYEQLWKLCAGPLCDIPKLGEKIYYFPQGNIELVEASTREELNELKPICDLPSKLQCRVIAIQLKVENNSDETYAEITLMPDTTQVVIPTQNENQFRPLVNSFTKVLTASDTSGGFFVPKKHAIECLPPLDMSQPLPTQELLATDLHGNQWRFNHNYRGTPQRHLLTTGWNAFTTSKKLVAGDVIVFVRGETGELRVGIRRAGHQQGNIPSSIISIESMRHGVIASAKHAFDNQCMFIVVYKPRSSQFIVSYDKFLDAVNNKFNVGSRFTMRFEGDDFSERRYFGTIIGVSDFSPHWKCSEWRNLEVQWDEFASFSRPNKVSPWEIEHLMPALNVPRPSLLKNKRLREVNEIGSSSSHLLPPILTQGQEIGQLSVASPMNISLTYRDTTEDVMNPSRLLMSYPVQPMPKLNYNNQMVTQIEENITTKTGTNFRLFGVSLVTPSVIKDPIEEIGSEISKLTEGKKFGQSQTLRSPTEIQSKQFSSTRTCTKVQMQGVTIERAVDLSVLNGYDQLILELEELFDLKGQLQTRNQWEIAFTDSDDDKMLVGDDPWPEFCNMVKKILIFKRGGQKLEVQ
UniProt Q9FKM7, sequence (whole entry, looked up): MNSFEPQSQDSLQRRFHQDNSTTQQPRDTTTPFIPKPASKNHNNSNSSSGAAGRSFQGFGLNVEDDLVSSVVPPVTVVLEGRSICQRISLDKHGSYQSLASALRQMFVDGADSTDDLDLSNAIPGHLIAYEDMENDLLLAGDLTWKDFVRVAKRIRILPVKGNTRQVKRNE
UniProt P93022, sequence (whole entry, looked up): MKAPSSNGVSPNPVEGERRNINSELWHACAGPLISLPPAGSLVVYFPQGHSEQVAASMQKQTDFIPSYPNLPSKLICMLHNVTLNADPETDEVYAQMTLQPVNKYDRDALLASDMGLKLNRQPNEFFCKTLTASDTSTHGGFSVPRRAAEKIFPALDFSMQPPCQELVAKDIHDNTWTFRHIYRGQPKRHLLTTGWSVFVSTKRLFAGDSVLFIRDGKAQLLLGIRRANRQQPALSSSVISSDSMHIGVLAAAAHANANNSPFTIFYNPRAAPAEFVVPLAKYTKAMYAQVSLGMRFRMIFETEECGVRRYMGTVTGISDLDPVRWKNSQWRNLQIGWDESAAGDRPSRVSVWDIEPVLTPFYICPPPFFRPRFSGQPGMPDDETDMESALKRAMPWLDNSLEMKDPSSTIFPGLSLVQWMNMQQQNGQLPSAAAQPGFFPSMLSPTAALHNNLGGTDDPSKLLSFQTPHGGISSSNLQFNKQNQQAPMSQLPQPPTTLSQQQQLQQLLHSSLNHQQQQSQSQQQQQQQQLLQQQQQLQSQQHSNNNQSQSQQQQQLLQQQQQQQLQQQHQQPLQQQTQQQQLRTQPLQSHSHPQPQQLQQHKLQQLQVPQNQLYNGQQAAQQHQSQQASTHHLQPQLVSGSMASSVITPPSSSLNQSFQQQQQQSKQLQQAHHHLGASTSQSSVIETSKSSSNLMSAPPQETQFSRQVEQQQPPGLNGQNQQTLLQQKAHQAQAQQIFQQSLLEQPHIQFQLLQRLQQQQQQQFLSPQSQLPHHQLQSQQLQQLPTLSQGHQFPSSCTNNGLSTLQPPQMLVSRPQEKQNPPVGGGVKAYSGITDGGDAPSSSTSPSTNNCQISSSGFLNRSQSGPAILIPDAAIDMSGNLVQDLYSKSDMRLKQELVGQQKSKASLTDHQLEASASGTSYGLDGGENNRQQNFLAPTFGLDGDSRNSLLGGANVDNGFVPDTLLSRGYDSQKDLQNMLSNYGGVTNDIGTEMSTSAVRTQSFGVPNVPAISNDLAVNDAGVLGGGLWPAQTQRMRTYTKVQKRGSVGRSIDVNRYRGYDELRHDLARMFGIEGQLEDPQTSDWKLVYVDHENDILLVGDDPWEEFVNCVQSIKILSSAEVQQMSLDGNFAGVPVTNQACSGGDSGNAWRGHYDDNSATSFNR
UniProt Q8RYC8, sequence (whole entry, looked up): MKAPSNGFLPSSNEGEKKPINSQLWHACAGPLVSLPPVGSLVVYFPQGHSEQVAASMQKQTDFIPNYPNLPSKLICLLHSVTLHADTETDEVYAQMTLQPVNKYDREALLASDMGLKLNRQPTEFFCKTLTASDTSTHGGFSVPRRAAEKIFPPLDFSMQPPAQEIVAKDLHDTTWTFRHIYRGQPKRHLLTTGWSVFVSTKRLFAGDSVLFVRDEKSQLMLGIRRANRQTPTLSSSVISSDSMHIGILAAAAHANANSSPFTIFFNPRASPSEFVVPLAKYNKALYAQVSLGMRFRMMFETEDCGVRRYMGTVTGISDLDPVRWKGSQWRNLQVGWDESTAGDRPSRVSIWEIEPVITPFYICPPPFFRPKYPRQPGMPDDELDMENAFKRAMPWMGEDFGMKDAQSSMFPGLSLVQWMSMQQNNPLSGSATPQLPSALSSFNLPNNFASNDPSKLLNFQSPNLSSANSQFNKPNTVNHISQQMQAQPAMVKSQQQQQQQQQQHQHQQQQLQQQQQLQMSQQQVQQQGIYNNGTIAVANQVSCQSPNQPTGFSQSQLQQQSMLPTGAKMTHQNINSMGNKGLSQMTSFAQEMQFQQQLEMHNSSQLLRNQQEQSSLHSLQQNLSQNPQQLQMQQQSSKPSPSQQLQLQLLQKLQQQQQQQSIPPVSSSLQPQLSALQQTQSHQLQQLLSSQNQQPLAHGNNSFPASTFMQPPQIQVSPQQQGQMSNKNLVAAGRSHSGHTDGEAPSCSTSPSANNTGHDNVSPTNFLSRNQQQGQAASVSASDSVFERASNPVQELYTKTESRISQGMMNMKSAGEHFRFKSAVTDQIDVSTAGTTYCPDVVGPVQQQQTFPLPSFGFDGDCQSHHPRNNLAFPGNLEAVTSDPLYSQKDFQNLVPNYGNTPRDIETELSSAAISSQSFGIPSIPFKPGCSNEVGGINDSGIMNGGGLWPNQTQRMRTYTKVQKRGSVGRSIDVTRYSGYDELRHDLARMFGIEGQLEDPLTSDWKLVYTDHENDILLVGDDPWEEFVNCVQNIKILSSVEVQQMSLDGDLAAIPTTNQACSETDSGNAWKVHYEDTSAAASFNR

Block 1
Target: Histone acetyltransferase KAT6A, winged helix 2, GST fusion (KAT6A, Homo sapiens, UniProt Q92794, residues 85-181)
Method: protein binding microarray
Molecule type: double-stranded DNA, one strand shown
Sample: in vitro
Tested at: not given
Notes: 8-mer, flanks averaged, mean of 2 arrays, mostly near background
Baseline: not given
Reading: higher = stronger binding
Target sequence (chain): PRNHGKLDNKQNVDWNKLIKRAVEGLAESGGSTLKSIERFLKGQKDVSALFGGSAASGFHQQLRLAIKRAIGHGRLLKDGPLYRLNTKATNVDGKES
For `CTATCGCC`, the E-score was -0.037.
For `CGGCGGGC`, the E-score was 0.234.
`GATTCACC` has an E-score of -0.0307.
For `ACCTGAGA`, the E-score was 0.0186.
The E-score of `CTGCATAC` is reported as 0.0566.
`GTACCTCA` has an E-score of -0.0481.
For `GGCCAGAC`, the E-score was 0.0662.
`CACTCCGG` has an E-score of 0.0516.
`GCGCTAAC` has an E-score of -0.00322.
`ACCAGCTG` has an E-score of 0.0895.
With `CCCATTAC` the E-score was -0.225.
`ACTATTAC` has an E-score of -0.0855.
With `AACTTGTC` the E-score was -0.107.
With `CAAGCCCC` the E-score was -0.0841.
The E-score of `CAGGCGAC` is reported as 0.116.
With `GCGAGAGA` the E-score was -0.0569.
The E-score of `ACGTTCAC` is reported as -0.215.
With `ACTTGAAC` the E-score was -0.101.
With `CACTTTCC` the E-score was -0.102.
For `CCAGAAGA`, the E-score was -0.129.
`CCAAAATA` has an E-score of 0.141.
With `CTAACTCC` the E-score was -0.0975.
`AACAGCGC` has an E-score of 0.0586.
For `CTTGGGCC`, the E-score was 0.089.
For `AGTTATCC`, the E-score was -0.0887.

Block 2
Molecule: B1 (IAA20)
Method: two-hybrid
Notes: weak activation fusion
Baseline: out of 4 tests
Reading: higher = firmer interaction
B1: IAA20 (Arabidopsis thaliana, UniProt O24410); chain MGRGRSSSSSSIESSSKSNPFGASSSTRNLSTDLRLGLSFGTSSGTQYFNGGYGYSVAAPAVEDAEYVAAVEEEEENECNSVGSFYVKVNMEGVPIGRKIDLMSLNGYRDLIRTLDFMFNASILWAEEEDMCNEKSHVLTYADKEGDWMMVGDVPWEMFLSTVRRLKISRANYHY
The positive tests was 1 (ETT (Arabidopsis thaliana, UniProt O23661)).
The positive tests was 2 (ARF8 699-811 (Arabidopsis thaliana, UniProt Q9FGV1)).
For IAA30 (Arabidopsis thaliana, UniProt Q9M1R4): positive tests read 2.
The positive tests was 2 (ARF22 498-598 (Arabidopsis thaliana, UniProt Q9C8N7)).
ARF7 1030-1164 (Arabidopsis thaliana, UniProt P93022) — positive tests: 2.
The positive tests was 2 (IAA33 (Arabidopsis thaliana, UniProt Q9FKM7)).
The positive tests was 0 (ARF12 500-593 (Arabidopsis thaliana, UniProt Q9XID4)).
ARF10 575-693 (Arabidopsis thaliana, UniProt Q9SKN5) — positive tests: 0.
The positive tests was 2 (ARF19 948-1086 (Arabidopsis thaliana, UniProt Q8RYC8)).

Block 3
Target: CCNB1, cyclin fold, Cln2 fusion (human)
Method: yeast growth competition, sequencing
Sample: yeast
Notes: strong parent motif
Baseline: not given
Reading: higher = stronger binding
Starting sequence: CCP110 docking peptide (human); EKVKRRLDLDIDG
`EKVKRRLDLAIDG [D10A]` — result for “normalised enrichment score”: 1.61.
`EKVKRRLDFDIDG [L9F]`: “normalised enrichment score” 5.24.
For `EKVKRRLALDIDG [D8A]`, “normalised enrichment score” read 0.415.
`EKVKARLDLDIDG [R5A]` — result for “normalised enrichment score”: 0.342.
`EAVKRRLDLDIDG [K2A]`: “normalised enrichment score” 1.5.
`EKVKRRLDLDIDA [G13A]` — result for “normalised enrichment score”: 1.45.
`EKAKRRLDLDIDG [V3A]` — result for “normalised enrichment score”: 0.179.

Block 4
Target: FOSB, bZIP domain (human)
Method: DHFR protein complementation
Sample: yeast
Notes: single substitutions, most at no-binding floor
Baseline: wild-type JUN-FOS pair
Reading: higher = stronger binding
Starting sequence: JUN, bZIP domain (human); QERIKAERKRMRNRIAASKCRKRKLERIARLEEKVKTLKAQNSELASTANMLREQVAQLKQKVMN; partner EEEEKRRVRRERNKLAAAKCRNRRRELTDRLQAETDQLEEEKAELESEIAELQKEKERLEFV
The binding fitness of `E54N` is reported as -0.13 natural log.
`L31N` gave a binding fitness of -0.744 natural log.
`L31A` gave a binding fitness of -0.186 natural log.
For `S43M`, the binding fitness was -0.0556 natural log.
`T48F` gave a binding fitness of -0.117 natural log.
For `K39W`, the binding fitness was -1.04 natural log.
`A29P` gave a binding fitness of -0.54 natural log.
The binding fitness of `L45S` is reported as -1.13 natural log.
The binding fitness of `Q55H` is reported as -0.162 natural log.
`A57E` gave a binding fitness of 0.0112 natural log.

Block 5
Target: ABI1, truncated, D143A, DHFR fusion (Arabidopsis thaliana)
Method: DHFR PCA, deep sequencing
Sample: yeast
Notes: methotrexate growth selection, single substitutions
Added: (+)-ABA 710 µM
Baseline: wild-type fitted maximum
Reading: higher = stronger binding
Starting sequence: PYL1, truncated, DHFR fusion (Arabidopsis thaliana); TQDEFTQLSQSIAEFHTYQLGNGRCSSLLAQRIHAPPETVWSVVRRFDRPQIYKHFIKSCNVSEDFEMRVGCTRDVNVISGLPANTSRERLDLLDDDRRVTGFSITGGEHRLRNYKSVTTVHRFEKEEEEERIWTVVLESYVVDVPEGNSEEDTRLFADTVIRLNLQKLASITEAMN
`E4L`: “relative binding score” 101%.
`T1I`: “relative binding score” 95.6%.
Under “relative binding score”, `K168A` is recorded as 96%.
`D153L`: “relative binding score” 4.24%.
For `Q2F`, “relative binding score” read 104%.
Under “relative binding score”, `R88G` is recorded as 80.9%.
`R74F`: “relative binding score” 2.64%.
Under “relative binding score”, `P37A` is recorded as 95%.
`L169Q` — result for “relative binding score”: -2.67%.
`P36R` — result for “relative binding score”: 94.9%.
`T119C`: “relative binding score” 106%.

Block 6
Target: Interferon regulatory factor 5, full length, phosphomimetic (IRF5, Homo sapiens, UniProt Q13568-2, residues 1-514, K96S/S451D/S453D/S456D/S462D)
Method: protein-binding microarray
Molecule type: double-stranded DNA, one strand shown
Sample: in vitro
Tested at: 250 nM
Notes: 60-bp whole probe
Added: salmon DNA 0.4 mg/ml
Baseline: random background probes
Reading: higher = stronger binding
All sequences stand within: GCCTAGCAC … GTCTTGATTCGCTTGACGCTGCTG
`TGTCCTGTCTACATGGGTGTGTGCTAG` has a log fluorescence of -0.252 z-score.
The log fluorescence of `TTAGGTTTTGGGACTGGGTTAGTGCTA` is reported as 0.397 z-score.
For `TCACTGGTCACTCTCTGACTGTGCTAG`, the log fluorescence was 0.00452 z-score.
For `TTAGGTATCGGGACTGGGCTAGTGCTA`, the log fluorescence was 1.53 z-score.
`GACTGACTGGGACTGGGGACGTGCTAG` gave a log fluorescence of -0.317 z-score.
`TTAGATCTCAGTATCGACTAGTGCTAG` gave a log fluorescence of 3.27 z-score.
With `GACGGTCTCCTTTTCCTGGCGTGCTAG` the log fluorescence was 0.114 z-score.
For `GACGGACTGGGGTATAGGGACGTGCTA`, the log fluorescence was -0.338 z-score.
For `TTAGATTCCAGATTCGATTAGTGCTAG`, the log fluorescence was 1.11 z-score.
For `GACGGACTGGCCACTGGGGACGTGCTA`, the log fluorescence was -0.502 z-score.
For `TCAGGACTGGGTCTCGGTTAGTGCTAG`, the log fluorescence was -0.116 z-score.
The log fluorescence of `TTAGATTTTGGGTATCGATTAGTGCTA` is reported as 3.99 z-score.

Single results of other studies
`PDCD11 (Homo sapiens, UniProt Q14690)` — result for cross-linked residues: “E715 to K45” (EBNA1BP2 (Homo sapiens, UniProt Q99848); cross-linking MS; cell fractions; added: DMTMM).
`PhoQ, residues 284 288 289 292 302 303 SLANIV` has a fold induction of 10.6 (PhoP, residues 12 14 15 18 19 HEGLL (Escherichia coli, UniProt P23836); Sort-seq, refers to: YFP reporter; E. coli; PhoQ-PhoP variant library, added: 10 µM Mg2+; baseline: high Mg2+ state, higher = stronger signaling).
For `NCL (Homo sapiens, UniProt P19338)`, cross-linked residues read “K477 to K108” (SYT1 (Homo sapiens, UniProt P21579); cross-linking MS; cell fractions; added: DSSO).
For `H2BC21 (Homo sapiens, UniProt Q16778)`, interaction screen read “cross-linked” (H2AC14 (Homo sapiens, UniProt Q99878); cross-linking MS; hits only).
`AXIN1 (Homo sapiens, UniProt O15169)`: cross-linked residues “K719 to K601” (CALD1 (Homo sapiens, UniProt Q05682); cross-linking MS; cell fractions; added: DSSO).

Excerpt of the above (block 1):
`ACTATTAC` has an E-score of -0.0855.
With `AACTTGTC` the E-score was -0.107.
With `CAAGCCCC` the E-score was -0.0841.
The E-score of `CAGGCGAC` is reported as 0.116.
With `GCGAGAGA` the E-score was -0.0569.
The E-score of `ACGTTCAC` is reported as -0.215.
With `ACTTGAAC` the E-score was -0.101.
With `CACTTTCC` the E-score was -0.102.
For `CCAGAAGA`, the E-score was -0.129.
`CCAAAATA` has an E-score of 0.141.
With `CTAACTCC` the E-score was -0.0975.
